Experimental data gathered from unrelated publications.
Each numbered part is a random draw from the data of one study; scales do not carry over between parts. Substitutions count along the parent as printed.
UniProt Q14164, sequence (whole entry, looked up): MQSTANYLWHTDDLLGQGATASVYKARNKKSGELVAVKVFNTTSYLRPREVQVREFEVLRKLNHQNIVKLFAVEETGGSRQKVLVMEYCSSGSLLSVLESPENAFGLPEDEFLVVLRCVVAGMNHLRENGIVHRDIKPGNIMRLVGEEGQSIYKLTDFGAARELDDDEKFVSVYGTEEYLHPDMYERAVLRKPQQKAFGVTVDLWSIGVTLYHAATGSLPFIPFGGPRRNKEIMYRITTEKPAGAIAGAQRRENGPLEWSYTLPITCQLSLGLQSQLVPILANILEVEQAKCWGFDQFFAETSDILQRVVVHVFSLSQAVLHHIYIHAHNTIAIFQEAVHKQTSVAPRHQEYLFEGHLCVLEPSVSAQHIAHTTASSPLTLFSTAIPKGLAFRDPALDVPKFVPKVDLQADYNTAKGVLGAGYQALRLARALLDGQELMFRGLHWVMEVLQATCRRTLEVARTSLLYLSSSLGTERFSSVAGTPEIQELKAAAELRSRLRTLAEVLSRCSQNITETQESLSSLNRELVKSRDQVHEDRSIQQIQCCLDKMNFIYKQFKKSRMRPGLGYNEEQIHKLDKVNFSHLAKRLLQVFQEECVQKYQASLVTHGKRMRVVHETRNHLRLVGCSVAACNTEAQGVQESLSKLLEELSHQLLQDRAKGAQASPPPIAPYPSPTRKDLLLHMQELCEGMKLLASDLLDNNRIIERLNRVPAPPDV
UniProt P37173, sequence (whole entry, looked up): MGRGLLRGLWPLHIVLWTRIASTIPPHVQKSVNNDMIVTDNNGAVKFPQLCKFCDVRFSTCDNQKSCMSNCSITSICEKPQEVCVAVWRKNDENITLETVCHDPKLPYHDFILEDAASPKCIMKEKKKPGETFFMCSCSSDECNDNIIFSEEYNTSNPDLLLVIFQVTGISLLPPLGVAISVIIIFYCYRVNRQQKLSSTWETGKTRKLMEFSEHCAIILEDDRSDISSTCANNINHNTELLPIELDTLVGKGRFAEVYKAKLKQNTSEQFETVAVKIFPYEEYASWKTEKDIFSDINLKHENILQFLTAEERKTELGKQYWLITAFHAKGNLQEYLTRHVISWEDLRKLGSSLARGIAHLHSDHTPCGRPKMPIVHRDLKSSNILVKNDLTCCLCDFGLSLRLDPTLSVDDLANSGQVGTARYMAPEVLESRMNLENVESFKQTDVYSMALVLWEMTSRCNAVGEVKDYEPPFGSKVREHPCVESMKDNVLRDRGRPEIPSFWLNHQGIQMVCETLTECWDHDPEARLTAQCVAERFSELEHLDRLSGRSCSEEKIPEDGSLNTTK
UniProt P27037, sequence (whole entry, looked up): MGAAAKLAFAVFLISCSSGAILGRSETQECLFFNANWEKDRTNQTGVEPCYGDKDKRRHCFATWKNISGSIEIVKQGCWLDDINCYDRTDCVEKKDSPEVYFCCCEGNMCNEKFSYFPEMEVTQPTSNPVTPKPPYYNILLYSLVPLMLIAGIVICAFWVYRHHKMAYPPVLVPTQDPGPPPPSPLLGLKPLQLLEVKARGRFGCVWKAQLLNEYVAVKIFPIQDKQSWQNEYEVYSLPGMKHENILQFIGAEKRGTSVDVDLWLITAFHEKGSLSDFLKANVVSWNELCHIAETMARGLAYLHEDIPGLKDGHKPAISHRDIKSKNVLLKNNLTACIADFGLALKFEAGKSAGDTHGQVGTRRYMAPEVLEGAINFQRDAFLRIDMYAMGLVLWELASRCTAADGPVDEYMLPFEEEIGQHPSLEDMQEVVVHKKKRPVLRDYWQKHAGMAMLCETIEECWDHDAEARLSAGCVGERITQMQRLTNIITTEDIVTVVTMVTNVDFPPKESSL
UniProt O14920, sequence (whole entry, looked up): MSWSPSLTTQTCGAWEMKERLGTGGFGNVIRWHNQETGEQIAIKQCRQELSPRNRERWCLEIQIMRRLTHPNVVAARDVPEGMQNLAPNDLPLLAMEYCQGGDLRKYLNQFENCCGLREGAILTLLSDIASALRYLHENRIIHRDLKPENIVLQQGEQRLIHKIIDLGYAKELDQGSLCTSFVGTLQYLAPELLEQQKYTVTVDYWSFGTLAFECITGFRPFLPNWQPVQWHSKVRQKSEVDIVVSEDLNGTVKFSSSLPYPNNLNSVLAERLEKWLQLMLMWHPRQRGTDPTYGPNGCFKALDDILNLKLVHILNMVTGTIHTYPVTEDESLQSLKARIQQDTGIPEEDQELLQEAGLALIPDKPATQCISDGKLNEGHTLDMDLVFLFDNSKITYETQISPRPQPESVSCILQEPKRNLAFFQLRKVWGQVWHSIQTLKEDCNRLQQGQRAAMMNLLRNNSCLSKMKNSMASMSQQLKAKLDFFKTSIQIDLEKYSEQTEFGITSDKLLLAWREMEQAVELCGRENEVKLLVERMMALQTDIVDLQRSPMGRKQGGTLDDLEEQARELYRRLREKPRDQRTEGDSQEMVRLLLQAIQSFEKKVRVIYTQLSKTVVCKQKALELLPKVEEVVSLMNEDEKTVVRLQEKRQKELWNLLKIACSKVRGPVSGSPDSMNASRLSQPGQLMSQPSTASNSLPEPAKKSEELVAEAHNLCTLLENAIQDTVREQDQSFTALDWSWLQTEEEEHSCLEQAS
UniProt O96017, sequence (whole entry, looked up): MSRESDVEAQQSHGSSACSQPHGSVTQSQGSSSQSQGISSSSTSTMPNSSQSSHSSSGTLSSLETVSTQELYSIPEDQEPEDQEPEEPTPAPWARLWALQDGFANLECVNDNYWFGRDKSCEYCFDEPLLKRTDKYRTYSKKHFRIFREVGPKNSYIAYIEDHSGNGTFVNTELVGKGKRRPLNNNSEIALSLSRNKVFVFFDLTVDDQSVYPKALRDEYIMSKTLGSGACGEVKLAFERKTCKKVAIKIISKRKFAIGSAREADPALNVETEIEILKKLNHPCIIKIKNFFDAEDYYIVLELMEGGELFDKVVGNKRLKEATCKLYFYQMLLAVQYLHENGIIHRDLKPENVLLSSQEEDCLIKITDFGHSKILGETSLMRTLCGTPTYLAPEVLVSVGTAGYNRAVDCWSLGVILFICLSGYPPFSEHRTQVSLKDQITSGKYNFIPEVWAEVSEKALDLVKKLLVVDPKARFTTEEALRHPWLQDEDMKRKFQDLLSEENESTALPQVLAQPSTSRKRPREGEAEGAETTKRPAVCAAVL
UniProt Q9UIK4, sequence (whole entry, looked up): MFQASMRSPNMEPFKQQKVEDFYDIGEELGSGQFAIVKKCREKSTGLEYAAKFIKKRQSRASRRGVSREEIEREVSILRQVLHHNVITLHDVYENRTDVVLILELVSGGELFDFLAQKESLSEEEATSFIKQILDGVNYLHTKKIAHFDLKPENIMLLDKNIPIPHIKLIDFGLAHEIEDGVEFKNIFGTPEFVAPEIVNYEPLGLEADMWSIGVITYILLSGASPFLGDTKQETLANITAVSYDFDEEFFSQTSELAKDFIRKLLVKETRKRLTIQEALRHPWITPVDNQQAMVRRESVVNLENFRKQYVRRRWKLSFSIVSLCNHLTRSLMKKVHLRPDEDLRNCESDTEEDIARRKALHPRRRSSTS
UniProt Q13557, sequence (whole entry, looked up): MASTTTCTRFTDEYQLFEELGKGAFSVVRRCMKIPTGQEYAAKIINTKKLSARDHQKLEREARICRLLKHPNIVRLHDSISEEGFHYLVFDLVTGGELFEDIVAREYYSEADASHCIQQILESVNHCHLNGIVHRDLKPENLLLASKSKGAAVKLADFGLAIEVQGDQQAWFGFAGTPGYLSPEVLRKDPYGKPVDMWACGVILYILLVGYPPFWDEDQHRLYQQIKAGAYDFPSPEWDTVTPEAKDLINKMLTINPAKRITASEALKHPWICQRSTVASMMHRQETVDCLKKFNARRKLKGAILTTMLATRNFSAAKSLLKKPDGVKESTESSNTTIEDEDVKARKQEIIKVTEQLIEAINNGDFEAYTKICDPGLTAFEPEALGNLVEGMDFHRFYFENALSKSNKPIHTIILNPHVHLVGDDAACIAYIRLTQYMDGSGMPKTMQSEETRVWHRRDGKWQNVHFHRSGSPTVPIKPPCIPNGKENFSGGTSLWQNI

Study 1 — method: universal PBM; molecule type: double-stranded DNA, one strand shown; matrix: in vitro; concentration: 600 nM; direction: higher = stronger binding
Target: Sal-like protein 4, full length isoform A (SALL4, Homo sapiens, UniProt Q9UJQ4, residues 1-1053)
UniProt Q9UJQ4, sequence (whole entry, looked up): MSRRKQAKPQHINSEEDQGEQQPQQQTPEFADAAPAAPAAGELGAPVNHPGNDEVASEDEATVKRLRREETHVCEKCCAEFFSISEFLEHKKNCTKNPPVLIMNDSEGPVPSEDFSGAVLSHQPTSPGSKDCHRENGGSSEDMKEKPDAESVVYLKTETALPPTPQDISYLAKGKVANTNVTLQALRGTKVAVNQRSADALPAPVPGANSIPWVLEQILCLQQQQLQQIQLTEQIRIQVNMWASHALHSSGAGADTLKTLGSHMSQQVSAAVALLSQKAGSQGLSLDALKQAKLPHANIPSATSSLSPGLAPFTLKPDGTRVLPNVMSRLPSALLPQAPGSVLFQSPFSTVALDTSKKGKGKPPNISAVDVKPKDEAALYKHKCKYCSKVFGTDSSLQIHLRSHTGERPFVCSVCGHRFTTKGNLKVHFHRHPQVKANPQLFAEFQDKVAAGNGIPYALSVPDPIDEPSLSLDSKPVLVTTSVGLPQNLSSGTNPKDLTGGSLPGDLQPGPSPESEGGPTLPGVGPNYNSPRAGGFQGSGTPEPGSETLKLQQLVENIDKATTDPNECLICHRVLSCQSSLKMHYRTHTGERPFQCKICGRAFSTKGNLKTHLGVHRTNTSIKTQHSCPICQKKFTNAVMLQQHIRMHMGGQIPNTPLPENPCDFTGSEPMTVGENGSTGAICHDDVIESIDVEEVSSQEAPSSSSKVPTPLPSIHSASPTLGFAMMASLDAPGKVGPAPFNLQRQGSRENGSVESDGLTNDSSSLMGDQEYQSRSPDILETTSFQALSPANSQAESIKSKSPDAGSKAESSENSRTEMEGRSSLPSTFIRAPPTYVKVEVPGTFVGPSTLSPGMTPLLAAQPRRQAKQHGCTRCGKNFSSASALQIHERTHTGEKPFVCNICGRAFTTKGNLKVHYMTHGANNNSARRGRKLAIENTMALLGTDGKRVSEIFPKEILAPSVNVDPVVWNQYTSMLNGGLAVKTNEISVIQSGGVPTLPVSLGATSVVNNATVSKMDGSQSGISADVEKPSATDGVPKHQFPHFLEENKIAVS
Notes: 8-mer, flanks averaged, mean of replicates
Sequence	E-score
TCTCTACA	0.145
CGGCAATA	0.113
CATGAGAC	0.118
TTCACAAA	0.129
CAGGGAAA	-0.126
ACGTCTAA	0.0104
GTTGCCTA	-0.133
CATCACGG	-0.0648

Study 2 — target: NFE2L1, bZIP domain (human); method: DHFR protein complementation; matrix: yeast; reference: wild-type JUN-FOS pair; direction: higher = stronger binding
Notes: single substitutions, most at no-binding floor
Starting sequence: JUN, bZIP domain (human); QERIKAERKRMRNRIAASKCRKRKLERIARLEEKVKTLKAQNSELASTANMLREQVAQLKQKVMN; partner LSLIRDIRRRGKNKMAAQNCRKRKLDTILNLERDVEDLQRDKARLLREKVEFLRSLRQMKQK
Variant	binding fitness
A49K	-1.48 natural log
Q41A	-1.36 natural log
T48I	-1.53 natural log
A49W	-1.53 natural log
L59G	-1.42 natural log
A57R	-1.47 natural log
S43E	-1.45 natural log
T37K	-1.45 natural log

Study 3 — observed: enzyme activity; mode: inhibitor; concentration: 0.5 µM; reference: control
SMILES: COc1ccc2c(c1)c(C1=C(c3c[nH]c4ccccc34)C(=O)NC1=O)cn2CCCN(C)C
target	remaining activity [%]
IKBKB (Homo sapiens, UniProt O14920)	99.6
IKBKE (Homo sapiens, UniProt Q14164)	100
NEK2 (Homo sapiens, UniProt P51955)	99.7
TGFBR2 (Homo sapiens, UniProt P37173)	120
STK11 (Homo sapiens, UniProt Q15831)	101
OXSR1 (Homo sapiens, UniProt O95747)	97.7
DAPK2 (Homo sapiens, UniProt Q9UIK4)	81.1
cGMP-dependent protein kinase 1, isoform beta (PRKG1, Homo sapiens, UniProt Q13976)	79.4
STK39 (Homo sapiens, UniProt Q9UEW8)	111
Cyclin-dependent kinase 5, with p25 (CDK5, Homo sapiens, UniProt Q00535)	114
CHEK2 (Homo sapiens, UniProt O96017)	38.8
MAPK9 (Homo sapiens, UniProt P45984)	86.1

Study 4 — observed: cell-free assay; method: competition with immobilised ligand; concentration: 1 µM
SMILES: C[C@H](c1ccc(F)cc1)N(Cc1cccc(C(=O)O)c1)C(=O)c1cnc2ccccc2c1
target	remaining binding
IKBKE (Homo sapiens, UniProt Q14164)	79%
CAMK2D (Homo sapiens, UniProt Q13557)	100%
EPHA1 (Homo sapiens, UniProt P21709)	100%
EIF2AK2 (Homo sapiens, UniProt P19525)	100%
ACVR2A (Homo sapiens, UniProt P27037)	100%

A few entries again (study 3):
target	remaining activity [%]
STK39 (Homo sapiens, UniProt Q9UEW8)	111
Cyclin-dependent kinase 5, with p25 (CDK5, Homo sapiens, UniProt Q00535)	114
CHEK2 (Homo sapiens, UniProt O96017)	38.8
